Measured values from different studies.
Compare with care: the assays were run in different laboratories. Numbers after ± are the reported error.
Organism: Arabidopsis thaliana

COc1cccc(C(=O)Nc2cccc(-c3cn(Cc4ccccc4)nn3)c2)c1 gave an IC50 of 14 µM (root growth; agar plates).
Under “time to complete reporter loss”, CC(C)Oc1cccc(NC(=O)CCCN2C(=O)c3ccccc3C2=O)c1 is recorded as 40 min (reporter protein, measured: DII-VENUS; 50 µM).
Under branch number, CCc1cccc2c(C(=O)COC(=O)C34CC5CC(CC(Br)(C5)C3)C4)c[nH]c12 is recorded as “increased” (measured: primary rosette branches; wild type; 10 µM, 30-day-old plants).
Under hypocotyl elongation, CC1=C(C)C(Oc2c(F)cc3c(C)cc(=O)oc3c2F)OC1=O (racemic) is recorded as “no effect” (Atd14-1 mutant; concentration not given).
For COC1CCC(N(C(=O)C2CCC(C)CC2)c2cc(C3=CCCCC3)sc2C(=O)O)CC1 (centres unmarked), protein O-fucosylation read “no effect” (wild type, seedling nuclear fraction; 30 µM, 2 days).
For O=C(Cc1ccc(O)cc1)N(O)Cc1ccccc1, “advancement of bud outgrowth” read 1 days (Col-0, excised stem nodes; 100 µM, together with: NAA 1 µM; baseline: wild type).
The N-carbamoyl-aspartate level of CN1C[C@H](c2cccc(C(F)(F)F)c2)[C@@H](C(=O)Nc2ccccc2F)C1=O is reported as 16.7 ± 2.02 ng/g fresh weight (seedlings; 1 µM, 24 h).
Under seed germination, CN1C(=O)C(O)(C(=O)O)Oc2ccccc21 (centres unmarked) is recorded as “inhibited” (Col-0; 50 µg/mL).

For quick reference, copied from above:
COc1cccc(C(=O)Nc2cccc(-c3cn(Cc4ccccc4)nn3)c2)c1 gave an IC50 of 14 µM (root growth; agar plates).
